Experimental data gathered from unrelated publications.
Numbered parts are unrelated; each lists some results of a single study. Changes are numbered by the printed parent chain.

Series 1 — target: CCND2, cyclin fold, Cln2 fusion (human); method: yeast growth competition, sequencing; matrix: yeast; setting: strong parent motif; reference: not given; direction: higher = stronger binding; quantity: normalised enrichment score
Starting sequence: INSM1 docking peptide (human); PKAIRKLHFEDEV
PKAIRKLHDEDEV [F9D]: -0.442
PKAIFKLHFEDEV [R5F]: 0.238
PKAIRKLHFEFEV [D11F]: 1.84
PKAIRILHFEDEV [K6I]: 1.4
PKARRKLHFEDEV [I4R]: 1.83
PKASRKLHFEDEV [I4S]: 1.37
PKKIRKLHFEDEV [A3K]: 0.532
PKAIRKTHFEDEV [L7T]: 0.117
PKAIRKLHFYDEV [E10Y]: 1.1
PKAIRQLHFEDEV [K6Q]: 2.06
PKAIRKLHFCDEV [E10C]: 1.75
PKAIWKLHFEDEV [R5W]: 0.473
PKAIRKLHFENEV [D11N]: 1.74
PKAIRFLHFEDEV [K6F]: 0.905
PKAIRKLHFEDKV [E12K]: 1.75
PKAKRKLHFEDEV [I4K]: 1.35
PKAIRKLEFEDEV [H8E]: 2.36
PKAIRKLPFEDEV [H8P]: 0.796
PKAIRKWHFEDEV [L7W]: -0.227
PKAIRKLHFPDEV [E10P]: 1.88

Series 2 — target: TEF, bZIP domain (human); method: DHFR protein complementation; matrix: yeast; reference: wild-type JUN-FOS pair; direction: higher = stronger binding; quantity: binding fitness
Setting: single substitutions, most at no-binding floor
Starting sequence: JUN, bZIP domain (human); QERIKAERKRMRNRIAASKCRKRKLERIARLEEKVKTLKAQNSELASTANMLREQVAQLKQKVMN; partner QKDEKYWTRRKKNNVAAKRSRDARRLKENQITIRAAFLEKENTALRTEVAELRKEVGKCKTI
L38A: -1.5 natural log
L31S: -1.37 natural log
L45V: -1.49 natural log
K34R: -1.44 natural log
A29R: -1.49 natural log
I28H: -1.48 natural log
A57N: -1.5 natural log
L45D: -1.34 natural log
E33S: -1.53 natural log
T37W: -1.51 natural log
Q41P: -1.52 natural log
K34G: -1.36 natural log

Series 3 — method: protein binding microarray; molecule type: double-stranded DNA, one strand shown; matrix: in vitro; tested at: not given; reference: not given; direction: higher = stronger binding; quantity: E-score
Target: Histone acetyltransferase KAT6A, winged helix 1, GST fusion (KAT6A, Homo sapiens, UniProt Q92794, residues 1-85)
Setting: 8-mer, flanks averaged, mean of 2 arrays, mostly near background
Residues (chain): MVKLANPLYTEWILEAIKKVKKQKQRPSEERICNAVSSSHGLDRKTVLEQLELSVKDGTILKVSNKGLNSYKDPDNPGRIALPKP
ACGATTAC: -0.0437
TAGGGCCA: -0.0454
GTGCGCTA: 0.228
CCTAAAGA: -0.0526
CAACTCAA: -0.247
TTAGCGAA: 0.0169
TCAGAGCA: -0.212
CAGAACCG: 0.0679
AGTTATCA: -0.175
GACTTATC: -0.15
CAACTATC: -0.159
ACTATGCT: -0.286
CCGACACC: 0.198
AGGACTAC: -0.037
ATGAACGA: -0.0425
AAGTACGA: -0.0283
ACGGAGAG: 0.118
CTAGTCGA: -0.138
GGCAGCAC: -0.032
CTAGTAGA: -0.186
AGTCCATG: -0.109
CTATACCA: -0.129
TCGCAAGA: 0.000745

Series 4 — method: DHFR PCA, deep sequencing; matrix: yeast; added: (+)-ABA 4.8 µM; reference: wild-type fitted maximum; direction: higher = stronger binding; quantity: relative binding score
Target: ABI1, truncated, D143A, DHFR fusion (Arabidopsis thaliana)
Setting: methotrexate growth selection, single substitutions
Starting sequence: PYL1, truncated, DHFR fusion (Arabidopsis thaliana); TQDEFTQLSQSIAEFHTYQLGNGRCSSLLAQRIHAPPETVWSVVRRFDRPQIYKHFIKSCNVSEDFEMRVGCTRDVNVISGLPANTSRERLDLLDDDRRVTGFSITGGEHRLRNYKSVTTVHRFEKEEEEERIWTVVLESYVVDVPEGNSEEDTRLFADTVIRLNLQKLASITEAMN
G102I: -4.46%
A158N: 8.62%
N165H: 3.25%
T6S: 78.8%
E174F: 8.59%
A158F: 8.27%
S42H: 52.6%
V78G: 7.41%
V143G: 4.89%
E89K: 11.1%
V118K: 53.7%
K54V: -5.35%
T6K: 80.4%
N22F: 66.5%
E131G: 89.2%
L164H: 74.4%
L82I: 66.1%
T106Q: 49.2%
K58A: 67.8%
V70L: 35.3%
F157E: -0.212%
E147G: 34.8%
V143T: 48.7%
F5C: 65.3%

Series 5 — method: protein-binding microarray; molecule type: double-stranded DNA, one strand shown; matrix: in vitro; tested at: 0.8 µM; setting: whole 60-bp probe, no competitor; direction: higher = stronger binding; quantity: fluorescence intensity; all sequences stand within: … GTCTTGATTCGCTTGACGCTGCTG
Target: Centromere-binding protein 1, full length, N-terminal tag (CBF1, Saccharomyces cerevisiae, UniProt P17106, residues 1-351)
UniProt P17106, sequence (whole entry, looked up): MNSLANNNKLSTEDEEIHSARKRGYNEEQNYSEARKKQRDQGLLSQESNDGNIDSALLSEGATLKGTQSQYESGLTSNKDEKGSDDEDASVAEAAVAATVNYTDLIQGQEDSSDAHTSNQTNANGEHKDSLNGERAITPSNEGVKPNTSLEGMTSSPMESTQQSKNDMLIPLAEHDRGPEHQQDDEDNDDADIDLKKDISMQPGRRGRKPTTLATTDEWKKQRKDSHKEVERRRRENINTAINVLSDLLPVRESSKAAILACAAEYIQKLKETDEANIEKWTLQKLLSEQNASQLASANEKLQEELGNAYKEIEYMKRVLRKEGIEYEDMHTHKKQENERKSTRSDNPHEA
CTATAACGCATCAATCTCCTGTGGAAGAGTGCTTTC: 479 a.u.
GAAAATTTGTAATGTCACGTGCATAATGGCATTTAG: 14800 a.u.
GAATTAAAGTAGATTCTCCTGATGACCCATTCATAG: 537 a.u.
CTATATGAAGTTGCACACATCAGCGGGAAAGATTTC: 542 a.u.
GAACTTAGACCGCACGTGATGATATTGAGAAATTAG: 11200 a.u.
GAATTTCAACCTTTGCACGATCTTTCAACGCTGTAG: 561 a.u.
GAAAACAGAACATTTGGCCACGTGAACAGGTCATAG: 4540 a.u.
CTAATACATATACTTCTCGTGCAGTATACTGGATTC: 586 a.u.
TGTACGAAGCTATTCCGTGCACATATAGTAGTTAGG: 513 a.u.
CTAAATGATATCAAACGCGTGGGTATTTTCCCTTTC: 506 a.u.
CTAACCCTCATAAAGCACGTGGCCTCTTATCGATTC: 7690 a.u.
GAAAGATTTTTTCATCTGATGATGTATGGAAAATAG: 563 a.u.
GAATCTCAGACCCTGAACGTGACCGTCCATCATTAG: 1900 a.u.
CCTAACTACTATAAACACATGACATAGCTTCGTACA: 1200 a.u.
CCTAACTACTATACTGTCGTGACATAGCTTCGTACA: 641 a.u.
GAAGCTTTTGTAGAACATGTGGCTGTTTCTGTATAG: 747 a.u.
CTAAGTGATTTTGTAGGCGTGATCAAGTGCTTATTC: 1290 a.u.
CCTAACTACTATAATCACGCTTCATAGCTTCGTACA: 649 a.u.
GAAGTTTGACTAATCAGCGTGAACTGACTGTAGTAG: 524 a.u.
CTATCTCCTTGTCGTCATGTGAAAGTCAAACAGTTC: 1160 a.u.
CCTAACTACTATATTCATCTGATATAGCTTCGTACA: 556 a.u.

Series 6 — method: RNA Bind-n-Seq; molecule type: RNA; matrix: in vitro; tested at: 1 µM; setting: whole 134-nt RNA, ends assumed; added: 150 mM KCl; reference: input library; direction: higher = stronger binding; quantity: log2 enrichment
Target: Ras GTPase-activating protein-binding protein 1, RRM domain (G3BP1, Homo sapiens, UniProt Q13283)
UniProt Q13283, sequence (whole entry, looked up): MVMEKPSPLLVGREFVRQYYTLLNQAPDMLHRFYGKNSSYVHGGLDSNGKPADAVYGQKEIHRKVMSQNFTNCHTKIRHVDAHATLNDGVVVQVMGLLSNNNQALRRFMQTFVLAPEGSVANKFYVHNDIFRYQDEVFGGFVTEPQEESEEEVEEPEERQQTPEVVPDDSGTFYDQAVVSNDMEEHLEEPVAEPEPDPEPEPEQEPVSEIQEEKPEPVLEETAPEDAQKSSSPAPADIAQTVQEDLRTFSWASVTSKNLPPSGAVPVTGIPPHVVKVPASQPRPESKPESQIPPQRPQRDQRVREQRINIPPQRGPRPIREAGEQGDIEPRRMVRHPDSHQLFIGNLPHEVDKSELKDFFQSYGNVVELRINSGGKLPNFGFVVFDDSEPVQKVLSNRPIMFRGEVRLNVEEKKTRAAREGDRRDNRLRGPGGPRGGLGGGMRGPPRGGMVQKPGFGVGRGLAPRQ
All sequences stand within: GGGAGUUCUACAGUCCGACGAUC … UGGAAUUCUCGGGUGUCAAGG
UUGCUGUCACCCGCUGCCUGUCUGCAGGAUCCCGGAUUCCGUAUCAGGGGACCGAAAUUAGUCGGAAAAUAGGAAGCAGGUGCUCGCUUG: -0.347
GUCCUGUGCUACACAUCGUAUGUACCGAAUCGGAAAAAAAGGAAAAAGGAAAAAAAGGAAAGUAUUAUGUUACGCCGUUCGGAUCUGCAC: 0.0681
UCAAGUCCUGUGCUACACAUCGUAUGUACCGAAUCGGAAAGGGAAAGGGAAAGGAAAGUAUUAUGUUACGCCGUUCGGAUCUGCACUUCC: -0.182
UGGGAGGUGGAUUUUUUUUAUUUUUUUAGCUCAUUUCCAGGGGUGGGAAUUUUUUUUUAAUAUGUGUCAUGAAUAAAGUUGUUUUUGAAA: 1.94
UCCUGUGCUACACAUCGUAUGUACCGAAUCGGGGUUUGGGGAAAAAGGGGAAAAAGGGGAAAGUAUUAUGUUACGCCGUUCGGAUCUGCA: 1.15
CACAGACAACACGCACAAACACAGACACAGAGGGAAGGGGUUGGGAUGGGGACAGGGUGCACAGCAGGGCGGGGUAGGACCCCAGCCCCU: -0.129
UUCCUCAGGGUAGAACUGGAUGACUCAGACGUGUUCCAUGGUGAACCUGAACCUGAGGAGCUGCCUGGAGGUAAGGGCCCUGAACUGUCC: -0.557
CUGUGCUACACAUCGUAUGUACCGAAUCGGGUUUUUUUGGUUUUUUUGGGGUUUUUUUGGGGAAAGUAUUAUGUUACGCCGUUCGGAUCU: -0.245
CCUCAAGUCCUGUGCUACACAUCGUAUGUACCGAAUCGGUGGUUUGGUUUGGAAAGUAUUAUGUUACGCCGUUCGGAUCUGCACUUCCAG: -0.369
UGGCCCUGGUGGCAUGCGGGGAGGAAGAGGUGGCCUCAUGGAUCGUGGUGGUCCCGGUGGAAUGUUGAGAGGUGGCCGUGGUGGAGACAG: 2.02
CACAGACAACACGCACUCACACAGACACAGAGGGAAGGGGUUGGGAUGGGGACAGGGUGCACAGCAGGGCGGGGUAGGACCCCAGCCCCU: 0.0907
GUCCUGUGCUACACAUCGUAUGUACCGAAUCGGGGUUUGGGGUGGGGAAAAAAAGGGGAAAGUAUUAUGUUACGCCGUUCGGAUCUGCAC: 0.86
CUCAAGUCCUGUGCUACACAUCGUAUGUACCGAAUCGGAAAGGAAAAAGGUGGAAAGUAUUAUGUUACGCCGUUCGGAUCUGCACUUCCA: -0.178
CCACCAUGACCCCUGACGGUCUGGCUGUGACCCCAACGCCGGUGCCCGUGGUCGGGAGCCAGAUGACCAGACAAGCCCGGCGCCUCUACG: -0.66

Repeated from above (series 5):
CTATAACGCATCAATCTCCTGTGGAAGAGTGCTTTC: 479 a.u.
GAAAATTTGTAATGTCACGTGCATAATGGCATTTAG: 14800 a.u.
GAATTAAAGTAGATTCTCCTGATGACCCATTCATAG: 537 a.u.
CTATATGAAGTTGCACACATCAGCGGGAAAGATTTC: 542 a.u.
GAACTTAGACCGCACGTGATGATATTGAGAAATTAG: 11200 a.u.
GAATTTCAACCTTTGCACGATCTTTCAACGCTGTAG: 561 a.u.
